Results gathered from unrelated publications.
Compare with care: the assays were run in different laboratories. Several values in a cell are separate wells, animals, samples, runs or records. Numbers after ± are the reported error.

For `Cc1c(Cl)cccc1Nc1ccccc1C(=O)[Se]CC(=O)Nc1cccc(C(F)(F)F)c1`, the GI50 was 1.61 µM (NCI60 prostate subpanel (PC-3, DU-145); cell growth, inhibitor; five-dose).
For `CC(C)c1ccc(N(C)c2ccc3c(c2)OCC[C@H]3CNc2cnccc2C(=O)O)cc1`, the IC50 was less than 0.01 µM (LOUCY; cell growth or viability, MTS; 7 days).
For `CO[C@@H]1[C@@H](OC(N)=O)[C@@H](O)[C@H](Oc2ccc3c(O)c(NC(=O)c4ccc(O)c(CC=C(C)C)c4)c(=O)oc3c2C)OC1(C)C`, the colony count was 0.1 (DLD-1 parental; 200 µM, replicate 2).
Under “mean growth percent”, `O=C(C[Se]C(=O)c1ccc2ccccc2n1)Nc1cccc(C(F)(F)F)c1` is recorded as -88.9% (NCI60 prostate subpanel (PC-3, DU-145); cell growth; 10 µM, 48 h, one-dose).
`Cc1cc(NC2CCN(C)CC2)ccc1-c1cc2c(N3CCC[C@H](C(=O)N[C@H](C)c4ccccc4)C3)ncnc2[nH]1` has an inhibition of 46.5% (NCI-H3122; cell growth or viability, MTT; 0.2 µg/mL, 72 h).
`O=C(C[Se]C(=O)c1cc2ccccc2s1)Nc1cccc(C(F)(F)F)c1`: “mean growth percent” -81.7% (NCI60 prostate subpanel (PC-3, DU-145); cell growth; 10 µM, 48 h, one-dose).
With `C1=[N+]2CCCC[N+]3=Cc4ccc5[n]4[Au-]23[n]2c1ccc2-c1nc2ccccc2nc1-5.F[P-](F)(F)(F)(F)F` the TGI was 4.64 -log M (SNB-19; NCI60 five-dose screen).
`CN1CC[C@@H](COc2cnc(C#N)cc2-c2ccn3nc(NC(=O)C4CC4)cc3c2)C1`: “number of upregulated genes” 61 genes (human PBMC, myeloid cells; single-cell RNA-seq; 10 µM, with: LPS; relative to: LPS alone).
`C=CC(=O)N1[C@H](c2ccc3c(c2)OCO3)c2[nH]c3ccccc3c2C[C@@H]1C(=O)NC` gave a neuron degeneration of 61.4% and 58.1% (rat DRG neurons; 0.1235 µM, 48 h, with: vincristine 40 nM).
Under “log2 fold change”, `CN1CCCNC(=O)c2cccc(c2)C(=O)NCCCN(C)CCCNc2cccc3c2C(=O)c2cccc(c2C3=O)NCCC1` is recorded as -0.543 (SAS; RNA-Seq, measured: NSUN2 mRNA; 1 µM, 6 h; relative to: untreated cells).
`COc1cccc(OC)c1-c1cc(C(=O)NC2(C(=O)O)C3CC4CC(C3)CC2C4)nn1-c1ccc(C(=O)N(C)CCCN(C)C(=O)[C@H](CCCCNC(=O)[C@H](CC(C)C)NC(=O)C2OC2C(=O)O)NC(=O)CN2CCN(CC(=O)[O-])CCN(CC(=O)[O-])CCN(CC(=O)[O-])CC2)cc1C(C)C.[177Lu+3]` (mixture of isomers) gave an internalized fraction of 4.64 ± 0.24% (HT-29; concentration not given, 60 min; relative to: added activity).
With `CNS(=O)(=O)Nc1nccc(Cc2c(C)c3ccc(Oc4ncccc4F)cc3oc2=O)c1F` the IC50 was greater than 1 µM (BT-474; cell viability; 7 days).
`Cc1cccc(-c2cccc(C)n2)n1.Cc1cccc(-c2cccc(C)n2)n1.F[P-](F)(F)(F)(F)F.F[P-](F)(F)(F)(F)F.[Ru+2].c1ccc2c(c1)Cc1cc(-c3nc4c5cccnc5c5ncccc5c4[nH]3)ccc1-2` gave an EC50 of 20.5 µM (SK-MEL-28; cell growth or viability, resazurin; dark).
With `Cc1cc(NC(=O)c2cccc(N)c2)ccc1Nc1nccc(-c2cccnc2)n1` the reporter activity was 0.765 (HEK293 AP-1 reporter; AP-1 promoter, luciferase; concentration not given, 6 h, unit not given, with: PMA; relative to: PMA alone).
`CO[C@@H]1[C@@H](OC(=O)c2ccc(C)[nH]2)[C@@H](O)[C@H](Oc2ccc3c(O)c(NC(=O)c4c[nH]c(C(=O)Nc5c(O)c6ccc(O[C@@H]7OC(C)(C)[C@H](OC)[C@@H](OC(=O)c8ccc(C)[nH]8)[C@H]7O)c(C)c6oc5=O)c4C)c(=O)oc3c2C)OC1(C)C` has a cell number of 53% (HaCaT Tet-On cells, uninduced; 7.5 µM; relative to: DMSO).
For `Cc1cccc(-c2cccc(C)n2)n1.Cc1cccc(-c2cccc(C)n2)n1.F[P-](F)(F)(F)(F)F.F[P-](F)(F)(F)(F)F.[Ru+2].c1ccc(-c2nc3c4cccnc4c4ncccc4c3[nH]2)cc1`, the phototoxicity index was 4 (SK-MEL-28; normoxia, with: green light 523 nm, 100 J/cm2; relative to: dark over light EC50).
`COC(=O)c1cc(NC2=NC(=O)C(=Cc3ccc(C)cc3)S2)ccc1OC(C)=O` gave a metabolite level of -0.05 fold change (MCF7; GC-MS, measured: Glyceric acid; 1 µM; relative to: DMSO).
`COc1ccccc1-c1ccncc1C(=O)Nc1nnc(OCc2ccc(Cl)cc2)s1` gave a colony survival of 12.9% (PEO1 BRCA2-mutant; 0.25 µM, with: olaparib 0.25 µM).
For `O=C(C[Se]C(=O)c1ccc2ccccc2c1)Nc1cccc(C(F)(F)F)c1`, the mean TGI was 3.58 µM (NCI60 prostate subpanel (PC-3, DU-145); total growth inhibition, inhibitor; five-dose).
The GI50 of `CCN(C(=O)c1cc(F)ccc1Oc1nncnc1N1CCC2(C1)CN([C@H](CCCN(C)CCOC)C(C)C)C2)C(C)C` is reported as greater than 10 µM (NCI-H460; cell growth or viability; 7 days).
`O=C(C[Se]C(=O)c1cc2ccccc2[nH]1)Nc1cccc(C(F)(F)F)c1` gave a mean TGI of 3.09 µM (NCI60 prostate subpanel (PC-3, DU-145); total growth inhibition, inhibitor; five-dose).
`CSCC[C@H](NC(=O)[C@H](CCC(N)=O)NC(=O)[C@H](CCCCN)NC(=O)[C@H](CCCNC(=N)N)NC(=O)[C@H](Cc1ccc(O)cc1)NC(=O)[C@H](CCCNC(=N)N)NC(=O)[C@H](CO)NC(=O)[C@H](Cc1ccc(O)cc1)NC(=O)[C@H](CO)NC(=O)[C@H](CC(=O)O)NC(=O)[C@@H](NC(=O)[C@@H](N)Cc1ccccc1)[C@@H](C)O)C(=O)N[C@@H](C)C(=O)N[C@H](C(=O)N[C@@H](CCCCN)C(=O)N[C@@H](CCCCN)C(=O)N[C@@H](Cc1ccc(O)cc1)C(=O)N[C@@H](CC(C)C)C(=O)N[C@@H](C)C(=O)N[C@@H](C)C(=O)N[C@H](C(=O)N[C@@H](CC(C)C)C(=O)NCC(=O)N[C@@H](CCCCN)C(=O)N[C@@H](CCCNC(=N)N)C(=O)N[C@@H](Cc1ccc(O)cc1)C(=O)N[C@@H](CCCCN)C(=O)N[C@@H](CCC(N)=O)C(=O)N[C@@H](CCCCn1cc(C[C@H](NC(=O)CNC(=O)[C@H](CO)NC(=O)[C@H](CCCNC(=N)N)NC(=O)[C@H](CO)NC(=O)[C@H](CC(C)C)NC(=O)[C@H](CC(C)C)NC(=O)CNC(=O)[C@H](C)NC(=O)[C@H](CC(C)C)NC(=O)[C@H](CCCNC(=N)N)NC(=O)[C@H](Cc2c[nH]cn2)NC(=O)[C@@H](NC(=O)[C@@H](N)C(C)C)[C@@H](C)O)C(=O)N[C@H](C(=O)N[C@H](C(=O)N[C@@H](CCCCN)C(=O)N[C@@H](CC(N)=O)C(=O)N[C@@H](CC(N)=O)C(=O)N[C@@H](Cc2ccccc2)C(=O)N[C@H](C(=O)N2CCC[C@H]2C(=O)N[C@H](C(=O)N[C@@H](CC(N)=O)C(=O)N[C@H](C(=O)NCC(=O)N[C@@H](CO)C(=O)N[C@@H](CCCCN)C(=O)N[C@@H](C)C(=O)N[C@@H](Cc2ccccc2)C(N)=O)C(C)C)[C@@H](C)O)C(C)C)C(C)C)C(C)C)nn1)C(=O)N[C@H](C(=O)N[C@@H](CCCCN)C(=O)N[C@@H](CC(N)=O)C(=O)N[C@@H](CCCCN)C(N)=O)C(C)C)C(C)C)C(C)C` gave an A2 of 2570 nM (transfected COS-7 cells; cAMP accumulation, antagonist; with: PACAP-27).
For `Cn1ncc2cc(-c3cncc(Cl)c3N3CCC4(CCNC4=O)CC3)ccc21`, “log2 fold change” read 2.69 (LS174T; gene expression, microarray, measured: HOXB5 mRNA; concentration not given, 24 h; relative to: untreated cells).
The inhibition of `Cc1cc(NC2CCN(C)CC2)ccc1-c1cc2c(N3CCC[C@H](C(=O)NCc4ccc(OC(F)(F)F)cc4)C3)ncnc2[nH]1` is reported as 39.5% (NCI-H3122; cell growth or viability, MTT; 0.008 µg/mL, 72 h).
For `CC(=O)N1c2ccc(-c3ccc(CNC(=O)c4cn5cc(-c6cnc(N)nc6)nc(N6CCOCC6)c5n4)cc3)cc2CC[C@@H]1C`, the GI50 was 0.0088 to 0.814 µM (cancer cell line panel; CellTiter-Glo; 5 d, range over 64 cell lines).
`Cc1ncsc1-c1ccc(C(C)NC(=O)C2CC(O)CN2C(=O)C(NC(=O)CCCCCCCCCCN2CCCC(Nc3ncc(Cl)c(Nc4ccccc4S(=O)(=O)C(C)C)n3)C2)C(C)(C)C)cc1` (stereo not drawn) — result for “log2 fold change”: -2.64 (22Rv1; RNA-seq, measured: ZC3H10 mRNA; concentration not given; relative to: DMSO).
`Cc1cccc(-c2cccc(C)n2)n1.Cc1cccc(-c2cccc(C)n2)n1.F[P-](F)(F)(F)(F)F.F[P-](F)(F)(F)(F)F.[Ru+2].c1ccc2c(-c3nc4c5cccnc5c5ncccc5c4[nH]3)c3ccccc3cc2c1` gave an EC50 of 65.3 µM (SK-MEL-28; cell growth or viability, resazurin; dark).
`CCN(CC)CC(=O)Nc1cccc(-n2cc(-c3ccc4ccc(-c5cn(-c6cccc(NC(=O)CN(CC)CC)c6)nn5)cc4c3)nn2)c1` gave a fold regulation of 1.12 (RCC4; PCR angiogenesis array, measured: ID1; 5 x IC50, 6 h, normoxia; relative to: untreated).
With `O=C(Nc1nnc2c1c(-c1ccc(Cl)cc1)nc1sc(=Cc3ccco3)c(=O)n12)c1ccccc1` (mixture of isomers) the cell growth was 32.6% (SNB-19; SRB; 10 µM, NCI60 single-dose screen; relative to: untreated).
`CCC(=CCc1c(O)cc2c(c1O)C(=O)CC(c1ccc(O)cc1)O2)CC` (stereo not drawn): “late apoptotic cells” 8.81 ± 0.05% (HeLa; annexin V/PI; 12 µM, 48 h).

For quick reference, copied from above:
`C=CC(=O)N1[C@H](c2ccc3c(c2)OCO3)c2[nH]c3ccccc3c2C[C@@H]1C(=O)NC` gave a neuron degeneration of 61.4% and 58.1% (rat DRG neurons; 0.1235 µM, 48 h, with: vincristine 40 nM).
Under “log2 fold change”, `CN1CCCNC(=O)c2cccc(c2)C(=O)NCCCN(C)CCCNc2cccc3c2C(=O)c2cccc(c2C3=O)NCCC1` is recorded as -0.543 (SAS; RNA-Seq, measured: NSUN2 mRNA; 1 µM, 6 h; relative to: untreated cells).
